# Published values gathered from unrelated publications.
# ± marks the error that the study gave.
Structure (SMILES),assay,test system,setting,scale,quantity,result
CC(C)C[C@@H](NC(=O)[C@@H](Cc1ccccc1)NC(=O)[C@H](N)Cc1ccccc1)C(=O)N[C@H](CCCCN)C(=O)N1CCC(N)(C(=O)O)CC1,item: total radioactivity,healthy human subjects,"intravenous, time not given",,dose recovered in urine,80.5%
CC[C@H](C)[C@H](NC(=O)[C@H](CO)NC(=O)[C@H](C)NC(=O)[C@@H](NC(=O)CNC(=O)[C@H](CO)NC(=O)[C@@H](NC(=O)[C@@H](NC(=O)[C@H](Cc1c[nH]cn1)NC(=O)[C@@H]1CCCN1C(=O)[C@@H](NC(=O)[C@H](CC(C)C)NC(=O)[C@H](CO)NC(=O)[C@H](CC(C)C)NC(=O)[C@@H](N)Cc1ccccc1)[C@@H](C)CC)[C@@H](C)CC)C(C)C)C(C)C)C(=O)N[C@@H](C)C(=O)N[C@@H](CCCCN)C(=O)N[C@@H](Cc1c[nH]cn1)C(=O)N[C@@H](Cc1ccccc1)C(N)=O,UPLC-MS/MS,rat plasma,"1.6 µg/mL, 10 days, -20 °C, long-term stability",,concentration found,1570 ng/mL
CN[C@@](C)(C[18F])C(=O)O,,"SCID mouse A549 xenograft, heart","30 min, post injection",,tissue uptake,3.6 ± 0.4 %ID/g
[123I]c1cncc(OC[C@@H]2CCN2)c1,SPECT,"human, high plasma nicotine, thalamus","intravenous, dose not given",relative to: plasma,tissue/plasma ratio,27.5
CCNc1nc(Cl)nc(NC(C)C)n1,LC-MS/MS,herbicide solution,"2 h, 4 °C, with: 365 nm UV exposure",,remaining amount,25.8 ± 11.1%
CC[C@H](C)[C@H](NC(=O)[C@@H](N)CCCNC(=N)N)C(=O)N[C@H](C(=O)N1CCC[C@H]1C(=O)N[C@@H](C)C(N)=O)C(C)C,,"human, plasma","intravenous, 8 mg/kg, single dose, healthy volunteers",,Cmax,31000 ng/mL
CCCCCOc1ccc(-c2cc(-c3ccc(C(=O)N[C@H]4C[C@@H](O)[C@@H](O)NC(=O)[C@@H]5[C@@H](O)[C@@H](C)CN5C(=O)[C@H]([C@H](O)CC(N)=O)NC(=O)[C@H]([C@H](O)[C@@H](O)c5ccc(O)c(OS(=O)(=O)O)c5)NC(=O)[C@@H]5C[C@@H](O)CN5C(=O)[C@H]([C@@H](C)O)NC4=O)cc3)no2)cc1,,"human children aged 6-11 years, plasma","intravenous, 3 mg/kg once daily, day 7, geometric mean",,AUCtau,244 µg·h/mL
O=c1[nH]c(Cc2ccccn2)nc2c1cnn2C1CCOCC1,,"healthy men, extensive metabolizers, plasma","oral, 5 mg single dose, tablet, geometric mean",,AUC(0-inf),0.0756 µM·h
Oc1cc(Cl)c(-c2cc(Cl)ccc2Cl)cc1Cl,,"Sprague-Dawley rat, male, serum","subcutaneous implant, 5% in implant, 28 d, medium dose group",,serum concentration,81 ± 21 ng/g
CC(C)C(=O)OC[C@H]1O[C@@H](n2ccc(NO)nc2=O)[C@H](O)[C@@H]1O,,rat brain dialysate,"250 ng/mL, time not given, three freeze-thaw cycles, with: NHC 1000 ng/mL",,remaining compound,104 ± 1.35%
COc1ccc(C[C@@H]2NC(=O)[C@H]([C@@H](C)O)NC(=O)[C@@H]3[C@@H]4CCN3C(=O)[C@@H]3Cc5cn(c6ccc(F)cc56)CCCCCCN(Cc5ccc(cc5)CCNC(=O)[C@]5(C)CCCN5C2=O)C(=O)CCC(=O)N[C@@H](C)C(=O)N[C@H](CNC(=O)CCCCC[N+](C)(C)C)C(=O)N[C@@H](Cc2cccc(c2)CNC(=O)CO4)C(=O)N3)cc1,,"fasted healthy men, plasma","oral, 35 mg single dose, 24 h, with 1800 mg Labrasol, median",,plasma concentration,6.98 nM
CC(=O)N[C@@H](Cc1c[nH]c2ccccc12)C(=O)N[C@@H](CC(N)=O)C(=O)N1CCC[C@H]1C(=O)N[C@@H](C)C(=O)N[C@H](C(=O)NCC(=O)N[C@@H](CCCCN)C(=O)N[C@@H](Cc1c[nH]c2ccccc12)C(=O)N[C@H](C(=O)NCC(N)=O)[C@@H](C)O)[C@@H](C)O,circular dichroism,phosphate buffer,pH 6.5,,Tm,< 0 °C
